Assay results of several laboratories.
Every numbered part comes from another study and shows a few of its results, in no order.

Series 1 — method: protein-binding microarray; molecule type: double-stranded DNA, one strand shown; medium: in vitro; concentration: 940 nM top; notes: 60-bp whole probe; with: salmon DNA 0.4 mg/ml; relative to: random background probes; direction: higher = stronger binding; constant ends, left off below: GCCTAGCAC … GTCTTGATTCGCTTGACGCTGCTG
Target: Interferon regulatory factor 5, full length, phosphomimetic (IRF5, Homo sapiens, UniProt Q13568-2, residues 1-514, S451D/S453D/S456D/S462D)
For `TTAGGACTGTTTCTCCTTTAGTGCTAG`, “fitted relative affinity” read 0.543 z-score.
Under “fitted relative affinity”, `TTAGGTATCCTTTTACTTTAGTGCTAG` is recorded as 0.75 z-score.
`TTAGGTCTCTTTATCCTTTAGTGCTAG` — result for “fitted relative affinity”: 1.13 z-score.
`TCATCTCTGGTTCTTGCACTGTGCTAG`: “fitted relative affinity” 1.09 z-score.
Under “fitted relative affinity”, `TTAGAACTGAGTCTCGTTTAGTGCTAG` is recorded as 1.19 z-score.
`GACGGTATCGGTCTCGGGATGTGCTAG`: “fitted relative affinity” 7.84 z-score.
`TTAGGTTTAGGTATCGGTTAGTGCTAG` — result for “fitted relative affinity”: 5.68 z-score.
`TTAGATATCGGGACGGGATTAGTGCTA` — result for “fitted relative affinity”: 0.386 z-score.
Under “fitted relative affinity”, `TCACATTTTTTTTTTCTACTGTGCTAG` is recorded as 2.43 z-score.
Under “fitted relative affinity”, `CTGTCTGAGGACACCCTGGCGTGCTAG` is recorded as -0.119 z-score.
Under “fitted relative affinity”, `GACGGACTGGCGACTGGGGACGTGCTA` is recorded as -0.503 z-score.
`TTAGATTTCAGTTTCGAATAGTGCTAG`: “fitted relative affinity” 4.63 z-score.
Under “fitted relative affinity”, `GACGATCTCAGTCTAGAGACGTGCTAG` is recorded as 0.217 z-score.
`GACGGTATCGACGTTCGGGACGTGCTA` — result for “fitted relative affinity”: 3.57 z-score.
Under “fitted relative affinity”, `GACGGTATCGGGACTGCGGACGTGCTA` is recorded as 3.09 z-score.
For `GACGAACTGGGACTGGGGACGTGCTAG`, “fitted relative affinity” read -0.271 z-score.

Series 2 — method: protein binding microarray; molecule type: double-stranded DNA, one strand shown; medium: in vitro; concentration: not given; relative to: not given; direction: higher = stronger binding
Target: Histone acetyltransferase KAT6A, both winged helices, GST fusion (KAT6A, Homo sapiens, UniProt Q92794, residues 1-181)
Notes: 8-mer, flanks averaged, mean of 2 arrays, mostly near background
Residues (chain): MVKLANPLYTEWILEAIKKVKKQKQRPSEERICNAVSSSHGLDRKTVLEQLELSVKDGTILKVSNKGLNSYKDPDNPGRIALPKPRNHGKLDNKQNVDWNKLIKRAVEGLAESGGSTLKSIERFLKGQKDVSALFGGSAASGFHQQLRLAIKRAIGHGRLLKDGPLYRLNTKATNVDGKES
The E-score of `CTGCGGTC` is reported as 0.217.
`CTAATTTA` gave an E-score of 0.00413.
The E-score of `CCCGGACA` is reported as 0.202.
`GGACTTGA` has an E-score of -0.0459.
`ACTCATCT` gave an E-score of -0.278.
The E-score of `AACCGGGC` is reported as 0.134.
`AGCCCAGA` gave an E-score of -0.242.
For `ATTGAGCG`, the E-score was 0.024.
`TGCTCCAA` has an E-score of -0.282.
`AGAGTTAT` gave an E-score of -0.189.
With `ATTCCAAC` the E-score was -0.19.
For `AGACCTAT`, the E-score was -0.0503.
For `CAGTCGTC`, the E-score was -0.118.
For `GCTCGACA`, the E-score was -0.0214.
The E-score of `GAAGCGCC` is reported as 0.248.
The E-score of `CCGCGCCG` is reported as 0.361.
With `CCGATGTC` the E-score was 0.0125.
For `ACTACACA`, the E-score was -0.115.
With `CGACTTAC` the E-score was 0.0161.
For `AGTCGAAA`, the E-score was -0.205.
For `CTATTTCC`, the E-score was -0.0912.
For `CGGGGAGA`, the E-score was 0.0903.
`CACACGCG` gave an E-score of 0.288.
The E-score of `CTACCTAG` is reported as -0.261.
`ACGCGTCG` gave an E-score of 0.357.

Series 3 — method: RNA Bind-n-Seq; molecule type: RNA; medium: in vitro; concentration: 90 pmol; notes: 4-mer, random 30-nt RNA, single round; with: 3 µM DMDA-PatA, 2 mM ADP, 2 mM phosphate; relative to: input library; direction: higher = stronger binding
Target: ATP-dependent RNA helicase DDX3X, helicase core (DDX3X, Homo sapiens, UniProt O00571, residues 132-607)
UniProt O00571, sequence (132-607, looked up): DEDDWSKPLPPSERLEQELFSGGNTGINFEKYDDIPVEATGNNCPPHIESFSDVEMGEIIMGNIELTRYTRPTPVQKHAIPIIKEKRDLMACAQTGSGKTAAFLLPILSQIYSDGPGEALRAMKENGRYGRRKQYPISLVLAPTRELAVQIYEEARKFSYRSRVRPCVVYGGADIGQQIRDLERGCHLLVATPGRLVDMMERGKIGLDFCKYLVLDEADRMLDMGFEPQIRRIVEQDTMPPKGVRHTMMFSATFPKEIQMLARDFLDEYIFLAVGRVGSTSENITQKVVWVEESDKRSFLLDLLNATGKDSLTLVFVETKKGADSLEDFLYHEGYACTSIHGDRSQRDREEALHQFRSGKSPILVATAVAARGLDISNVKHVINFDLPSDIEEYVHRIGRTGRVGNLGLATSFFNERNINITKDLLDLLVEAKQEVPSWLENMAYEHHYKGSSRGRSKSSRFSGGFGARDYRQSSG
`AAGU` has a 4-mer enrichment of 1.23 fold.
The 4-mer enrichment of `UUCG` is reported as 0.895 fold.
`CUAG` has a 4-mer enrichment of 0.828 fold.
With `AAUG` the 4-mer enrichment was 1.04 fold.
The 4-mer enrichment of `GUCA` is reported as 0.955 fold.
`GGAC` gave a 4-mer enrichment of 0.893 fold.
With `CUGA` the 4-mer enrichment was 0.812 fold.
`CGUG` has a 4-mer enrichment of 1.13 fold.
The 4-mer enrichment of `CAGA` is reported as 0.979 fold.
`UGAA` gave a 4-mer enrichment of 1.05 fold.
For `UUGG`, the 4-mer enrichment was 1 fold.
For `UGCA`, the 4-mer enrichment was 0.92 fold.
For `UGCG`, the 4-mer enrichment was 1.05 fold.
`GGCA` has a 4-mer enrichment of 0.999 fold.

Series 4 — method: RNA Bind-n-Seq; molecule type: RNA; medium: in vitro; concentration: not given; relative to: input RNA pool; direction: higher = stronger binding
Target: RING finger protein unkempt homolog, zinc fingers 1-6, GST-SBP tag (UNK, Homo sapiens, UniProt Q9C0B0, residues 30-357)
Notes: RNA with constant flanks, human and mouse sites, ends assumed
Residues (chain): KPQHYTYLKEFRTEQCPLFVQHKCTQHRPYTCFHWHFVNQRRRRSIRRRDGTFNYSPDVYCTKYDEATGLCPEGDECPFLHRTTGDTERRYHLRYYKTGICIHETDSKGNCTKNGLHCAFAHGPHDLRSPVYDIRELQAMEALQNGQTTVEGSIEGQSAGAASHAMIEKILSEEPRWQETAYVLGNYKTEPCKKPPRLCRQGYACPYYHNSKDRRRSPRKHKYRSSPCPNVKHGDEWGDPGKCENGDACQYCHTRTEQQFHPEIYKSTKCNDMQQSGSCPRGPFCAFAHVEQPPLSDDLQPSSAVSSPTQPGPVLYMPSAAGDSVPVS
For `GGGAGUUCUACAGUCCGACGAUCAUUCCGUUCAUUGAGACCUCAGCAAAGACAAGACAGGGUGUUGACGAUGCCUUCUAUACAUUAGUCCGAGAAAUUCGAAAACAUAAAGAAAAGAUGAGCAAAGAUGGGAAGAAGAAGAAGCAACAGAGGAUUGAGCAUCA`, the bound/input enrichment was 0.648 ratio.
`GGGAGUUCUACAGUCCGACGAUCCAUUAUUACUCCAUCACUAUUAAUUACCGGAAAAAUGAACUGGAACAGAAGAUGCUGUUAAAUUUGCAUAAGAAGAGUUGGAUGGAAGGAUUGACACUUCAGGACUACAGUGAACACUGUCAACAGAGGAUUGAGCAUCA` has a bound/input enrichment of 0.277 ratio.
`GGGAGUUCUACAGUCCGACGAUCAUAGAAACCUUGAUUGGCAAAAAGCAACAGAUAUCUCUUGCAACACAAAUGGUUAGAAUGAUUUUGAAGAUUGAUGACAUUCGUAAGCCUGGAGAAUCUGAAGAAUGAAGACAUUGAGAACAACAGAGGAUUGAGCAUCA` gave a bound/input enrichment of 0.273 ratio.
The bound/input enrichment of `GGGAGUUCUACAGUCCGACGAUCUCACUUAAUUUGUAUAAAUGUUAUGAGUGGAGAGACAUGUACAUGUUAAAAGCAUGUUGCAUUAUAUAUUCAUUUUUUAAACUCUAUAAAUGUUAAGAAUAAUAUAAUUGCAGAAAUAUUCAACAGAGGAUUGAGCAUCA` is reported as 0.244 ratio.
For `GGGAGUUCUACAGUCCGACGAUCGCAAAGGGAAGCGAGACUCCUGGAGCAACCCCAGGCUCAAAAAUAUGGGAUCCUACACCUAGCCACACACCAGCGGGAGCUGCUACUCCUGGACGAGGUGAUACACCAGGCCAUGCGACACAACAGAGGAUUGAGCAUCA`, the bound/input enrichment was 0.0948 ratio.
The bound/input enrichment of `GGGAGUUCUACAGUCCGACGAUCAGGGUUGAUGUUCUGAAGAACCACUUGGUAAAAGAAGGGCGGGUGGAUGAAGAAAUUGCACUAAGAAUUAUCAAUGAGGGUGCUGCCAUACUUCGGCGGGAGAAAACCAUGAUAGAAGUACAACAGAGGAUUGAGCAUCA` is reported as 0.496 ratio.
`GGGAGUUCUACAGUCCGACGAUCAAAGAGAAAGAUGAAAUGGUAGAGCAAGAGUUUAACCGGUUGCUAGAAGCUACAUCUUACCUUAGUCAUCAACUAGACUUCAAUGUCCUCAAUAAUAAGCCUGUGUCCCUUGGCCAGGCACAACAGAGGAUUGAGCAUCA` gave a bound/input enrichment of 0.373 ratio.
`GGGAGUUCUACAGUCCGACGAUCUAGGCCCUGGAUUAUGUAGAAGAUUUAGAUACUAAGCCUCAAGAGACGUCUUUCCUCUCAUUUACGGUCUUCCUGCAUAUUUAAAAUUUCUAAUACGGUAGACAGAGUCGGUGUCUUUGACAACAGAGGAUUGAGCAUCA` gave a bound/input enrichment of 1.5 ratio.
`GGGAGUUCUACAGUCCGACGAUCAGGAUGAACCGGACAGAUUCCGAAAUAUAUGAGGAUGCUGUAGAACUUCAGCAGUUUUUUAUUAGAAUUCGUGAUGAACUCUGCAAAAAUGGAGAGAUCCUUCUUUCUCCAGCACUCAGCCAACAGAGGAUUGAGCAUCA` has a bound/input enrichment of 0.391 ratio.
`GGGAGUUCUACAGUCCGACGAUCGGUGUUGCUGGAGUAGGGGCUGGUCUGGCAUAUCUAAUAAGAUAGCCUUGUGAGUGCAAUAGGGGACUCUUAAAGCUCCAGCCACCAAACUACAUGCAUCUGUGAAAACAUGUGUAUUUACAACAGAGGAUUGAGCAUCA` gave a bound/input enrichment of 0.167 ratio.
`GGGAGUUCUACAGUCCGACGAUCACAGGUACCCACAGACUUGGCACAAAAAUUUGCUGACACACACAGUAUGCCUUUGUUUGAAACGUCUGCUAAAAACCCCAAUGAUAAUGACCAUGUGGAAGCUAUAUUUAUGACCUUGGCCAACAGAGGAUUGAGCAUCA` has a bound/input enrichment of 0.277 ratio.

Series 5 — target: UBE2Q1 UBC core domain (UniProt Q7Z7E8); method: yeast two-hybrid; medium: yeast; notes: mostly zero background; relative to: not given; direction: higher = stronger interaction
B1: SH3RF1 RING domain (UniProt Q7Z6J0); chain DESALLDLLECPVCLERLDASAKVLPCQHTFCKRCLLGIVGSRNELRCPECRTLVGSGVEEL
B2: SYTL4 RING domain (UniProt Q96C24); chain RGSQHYSDRTCARCQESLGRLSPKTNTCRGCNHLVCRDCRIQESNGTWRCKVCAKEIELKKAT
B3: RNF133 RING domain (UniProt Q8WVZ7); chain DEEINPNGDSCVICFERYKPNDIVRILTCKHFFHKNCIDPWILPHGTCPICKCDILKVLGIQ
B4: DZIP3 RING domain (UniProt Q86Y13); chain PDEEEEEEEPCVICHENLSPENLSVLPCAHKFHAQCIRPWLMQQGTCPTCRLHVLLPEEFP
B5: RBCK1 RING domain (UniProt Q9BYM8); chain SLVLNTEPAECPVCYSVLAPGEAVVLRECLHTFCRECLQGTIRNSQEAEVSCPFIDNTYSCSGKLLEREIK
Target sequence (chain): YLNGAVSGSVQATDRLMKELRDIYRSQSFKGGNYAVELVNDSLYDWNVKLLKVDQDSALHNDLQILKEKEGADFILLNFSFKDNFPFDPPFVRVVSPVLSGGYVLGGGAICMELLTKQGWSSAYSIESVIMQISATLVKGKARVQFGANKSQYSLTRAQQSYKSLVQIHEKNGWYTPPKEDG
Under “lacZ reporter activity”, `PEDRESLKSACVVCLSSFKSCVFLECGHVCSCTECYRALPEPKKCPICRQAITRVIPLY (MUL1 RING domain (UniProt Q969V5))` is recorded as 0.
`FDGDVDPDLKCALCHKVLEDPLTTPCGHVFCAGCVLPWVVQEGSCPARCRGRLSAKELN (PDZRN3 RING domain (UniProt Q9UPQ7))`: “lacZ reporter activity” 0.
`B1 (SH3RF1 RING domain)`: “lacZ reporter activity” 0.
Under “lacZ reporter activity”, `AVPSGLEENLCKICMDSPIDCVLLECGHMVTCTKCGKRMNECPICRQYVIRAVHVF (RFFL RING domain (UniProt Q8WZ73))` is recorded as 0.
`B2 (SYTL4 RING domain)`: “lacZ reporter activity” 0.
`B3 (RNF133 RING domain)`: “lacZ reporter activity” 0.
`GSDDEEIPFKCFICRQSFQNPVVTKCRHYFCESCALQHFRTTPRCYVCDQQTNGVFNPA (RNF113A RING domain (UniProt O15541))`: “lacZ reporter activity” 0.
For `B4 (DZIP3 RING domain)`, “lacZ reporter activity” read 0.
Under “lacZ reporter activity”, `B5 (RBCK1 RING domain)` is recorded as 0.

A few entries again (series 3):
`CUAG` has a 4-mer enrichment of 0.828 fold.
With `AAUG` the 4-mer enrichment was 1.04 fold.
The 4-mer enrichment of `GUCA` is reported as 0.955 fold.
`GGAC` gave a 4-mer enrichment of 0.893 fold.
With `CUGA` the 4-mer enrichment was 0.812 fold.
`CGUG` has a 4-mer enrichment of 1.13 fold.
The 4-mer enrichment of `CAGA` is reported as 0.979 fold.
`UGAA` gave a 4-mer enrichment of 1.05 fold.
For `UUGG`, the 4-mer enrichment was 1 fold.
For `UGCA`, the 4-mer enrichment was 0.92 fold.
